Experimental data collected from several papers.
Protocols differ between the studies behind these lines. Numbers after ± are the reported error.
Oprk1: Kappa-type opioid receptor (Oprk1, Rattus norvegicus, UniProt P34975)
Sequence of UniProt P34975 (whole entry, looked up): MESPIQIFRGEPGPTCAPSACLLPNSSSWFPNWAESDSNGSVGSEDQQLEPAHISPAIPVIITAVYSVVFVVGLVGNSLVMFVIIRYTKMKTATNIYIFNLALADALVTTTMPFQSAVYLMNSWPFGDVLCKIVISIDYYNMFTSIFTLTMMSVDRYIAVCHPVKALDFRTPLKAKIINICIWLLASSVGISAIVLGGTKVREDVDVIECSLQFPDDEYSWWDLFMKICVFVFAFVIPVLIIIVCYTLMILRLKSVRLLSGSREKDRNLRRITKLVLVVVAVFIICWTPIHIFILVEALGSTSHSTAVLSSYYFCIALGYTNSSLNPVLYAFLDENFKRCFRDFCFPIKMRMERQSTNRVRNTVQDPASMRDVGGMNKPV
Sequence of UniProt P30550 (whole entry, looked up): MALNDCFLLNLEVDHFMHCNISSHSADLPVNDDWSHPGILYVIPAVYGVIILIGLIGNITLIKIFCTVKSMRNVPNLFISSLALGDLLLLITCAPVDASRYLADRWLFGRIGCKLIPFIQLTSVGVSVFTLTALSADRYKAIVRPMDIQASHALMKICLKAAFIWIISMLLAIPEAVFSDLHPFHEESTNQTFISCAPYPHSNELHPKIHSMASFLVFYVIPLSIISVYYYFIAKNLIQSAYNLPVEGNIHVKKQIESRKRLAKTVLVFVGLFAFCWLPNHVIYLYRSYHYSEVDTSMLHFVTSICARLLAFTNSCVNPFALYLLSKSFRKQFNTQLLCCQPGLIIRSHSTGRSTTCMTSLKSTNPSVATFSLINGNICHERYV
Sequence of UniProt Q15858 (whole entry, looked up): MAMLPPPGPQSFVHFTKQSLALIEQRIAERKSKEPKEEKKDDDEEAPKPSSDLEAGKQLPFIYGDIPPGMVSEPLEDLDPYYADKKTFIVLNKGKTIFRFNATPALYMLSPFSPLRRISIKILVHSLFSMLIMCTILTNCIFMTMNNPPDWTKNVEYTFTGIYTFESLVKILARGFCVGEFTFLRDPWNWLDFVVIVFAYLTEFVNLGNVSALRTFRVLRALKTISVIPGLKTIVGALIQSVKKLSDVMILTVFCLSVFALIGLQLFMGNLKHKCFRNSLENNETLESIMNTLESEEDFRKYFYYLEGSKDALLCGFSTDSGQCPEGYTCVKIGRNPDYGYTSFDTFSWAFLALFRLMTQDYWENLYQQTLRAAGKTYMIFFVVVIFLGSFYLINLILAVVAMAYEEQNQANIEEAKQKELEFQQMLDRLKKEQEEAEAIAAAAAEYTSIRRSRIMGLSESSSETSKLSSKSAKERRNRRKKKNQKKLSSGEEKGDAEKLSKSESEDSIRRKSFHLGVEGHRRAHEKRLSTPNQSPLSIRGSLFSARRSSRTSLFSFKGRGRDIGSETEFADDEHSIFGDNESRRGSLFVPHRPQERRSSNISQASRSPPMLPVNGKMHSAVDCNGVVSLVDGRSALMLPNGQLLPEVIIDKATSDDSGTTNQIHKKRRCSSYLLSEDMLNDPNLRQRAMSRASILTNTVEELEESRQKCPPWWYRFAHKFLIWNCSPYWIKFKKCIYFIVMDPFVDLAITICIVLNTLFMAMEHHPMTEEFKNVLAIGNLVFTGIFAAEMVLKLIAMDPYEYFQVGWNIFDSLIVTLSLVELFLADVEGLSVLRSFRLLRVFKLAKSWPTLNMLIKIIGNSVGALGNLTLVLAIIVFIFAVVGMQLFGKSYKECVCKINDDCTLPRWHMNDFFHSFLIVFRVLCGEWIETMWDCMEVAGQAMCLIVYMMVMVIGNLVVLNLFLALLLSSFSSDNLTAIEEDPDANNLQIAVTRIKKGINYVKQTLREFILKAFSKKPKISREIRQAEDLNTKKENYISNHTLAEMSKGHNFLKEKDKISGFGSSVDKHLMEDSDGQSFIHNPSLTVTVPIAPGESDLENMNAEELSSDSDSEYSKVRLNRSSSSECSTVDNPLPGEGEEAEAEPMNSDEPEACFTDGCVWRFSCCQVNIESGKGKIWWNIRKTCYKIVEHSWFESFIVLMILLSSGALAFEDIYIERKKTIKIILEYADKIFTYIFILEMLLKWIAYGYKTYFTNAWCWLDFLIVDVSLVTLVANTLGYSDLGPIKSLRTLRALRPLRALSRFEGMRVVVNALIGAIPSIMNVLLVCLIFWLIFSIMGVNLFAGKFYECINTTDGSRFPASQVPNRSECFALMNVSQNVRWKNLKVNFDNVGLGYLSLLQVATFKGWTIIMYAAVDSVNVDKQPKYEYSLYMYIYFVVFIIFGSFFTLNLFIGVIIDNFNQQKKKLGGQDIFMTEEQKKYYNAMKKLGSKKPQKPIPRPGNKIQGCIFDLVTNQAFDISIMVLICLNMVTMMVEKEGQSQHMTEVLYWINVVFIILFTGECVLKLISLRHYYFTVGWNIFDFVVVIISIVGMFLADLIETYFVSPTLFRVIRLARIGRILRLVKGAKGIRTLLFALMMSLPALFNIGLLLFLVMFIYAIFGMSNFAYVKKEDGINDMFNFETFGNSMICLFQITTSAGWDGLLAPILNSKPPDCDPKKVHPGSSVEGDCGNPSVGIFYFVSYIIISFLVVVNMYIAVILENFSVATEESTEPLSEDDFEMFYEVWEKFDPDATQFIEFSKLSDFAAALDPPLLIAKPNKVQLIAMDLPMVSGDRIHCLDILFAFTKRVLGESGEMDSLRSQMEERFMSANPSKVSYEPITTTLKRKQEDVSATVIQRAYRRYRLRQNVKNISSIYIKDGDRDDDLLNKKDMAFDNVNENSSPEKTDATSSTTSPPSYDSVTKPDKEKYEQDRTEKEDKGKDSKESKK
Sequence of UniProt O66465 (whole entry, looked up): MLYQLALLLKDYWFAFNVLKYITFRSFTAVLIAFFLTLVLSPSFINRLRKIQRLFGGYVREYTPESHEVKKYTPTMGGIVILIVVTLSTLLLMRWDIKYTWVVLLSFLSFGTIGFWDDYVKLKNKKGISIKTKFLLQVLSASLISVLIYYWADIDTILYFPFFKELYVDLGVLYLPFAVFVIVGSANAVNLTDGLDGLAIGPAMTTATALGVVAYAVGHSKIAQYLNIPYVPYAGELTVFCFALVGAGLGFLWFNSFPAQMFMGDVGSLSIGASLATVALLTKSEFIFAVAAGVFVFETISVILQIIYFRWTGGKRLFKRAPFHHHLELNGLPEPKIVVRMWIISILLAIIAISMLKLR
Sequence of UniProt Q04828 (whole entry, looked up): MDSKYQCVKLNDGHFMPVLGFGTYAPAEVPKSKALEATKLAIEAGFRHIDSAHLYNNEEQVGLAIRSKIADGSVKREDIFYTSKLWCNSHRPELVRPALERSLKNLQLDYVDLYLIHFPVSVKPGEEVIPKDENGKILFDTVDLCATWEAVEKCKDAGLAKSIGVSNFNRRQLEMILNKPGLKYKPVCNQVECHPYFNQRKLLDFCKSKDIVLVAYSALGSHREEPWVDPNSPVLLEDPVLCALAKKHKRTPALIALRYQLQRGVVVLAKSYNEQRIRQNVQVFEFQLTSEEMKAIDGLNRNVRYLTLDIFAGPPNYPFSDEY
Sequence of UniProt P02699 (whole entry, looked up): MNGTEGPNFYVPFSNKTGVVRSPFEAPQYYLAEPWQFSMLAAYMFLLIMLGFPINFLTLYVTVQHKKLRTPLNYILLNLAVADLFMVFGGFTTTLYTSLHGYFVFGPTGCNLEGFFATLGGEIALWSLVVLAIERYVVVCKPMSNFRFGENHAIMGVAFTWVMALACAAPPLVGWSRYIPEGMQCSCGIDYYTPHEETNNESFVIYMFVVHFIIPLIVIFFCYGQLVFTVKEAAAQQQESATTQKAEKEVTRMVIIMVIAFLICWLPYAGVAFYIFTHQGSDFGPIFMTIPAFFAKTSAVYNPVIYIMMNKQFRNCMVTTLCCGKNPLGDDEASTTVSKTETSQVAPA
Sequence of UniProt P55210 (whole entry, looked up): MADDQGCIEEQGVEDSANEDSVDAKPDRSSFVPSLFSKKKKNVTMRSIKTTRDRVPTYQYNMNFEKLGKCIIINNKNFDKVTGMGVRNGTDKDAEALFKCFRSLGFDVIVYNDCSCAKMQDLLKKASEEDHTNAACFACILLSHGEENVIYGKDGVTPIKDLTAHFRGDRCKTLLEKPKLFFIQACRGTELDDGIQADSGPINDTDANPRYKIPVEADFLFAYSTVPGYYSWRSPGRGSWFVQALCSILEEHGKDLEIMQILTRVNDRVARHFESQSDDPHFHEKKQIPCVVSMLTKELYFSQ
Sequence of UniProt Q8VD00 (whole entry, looked up): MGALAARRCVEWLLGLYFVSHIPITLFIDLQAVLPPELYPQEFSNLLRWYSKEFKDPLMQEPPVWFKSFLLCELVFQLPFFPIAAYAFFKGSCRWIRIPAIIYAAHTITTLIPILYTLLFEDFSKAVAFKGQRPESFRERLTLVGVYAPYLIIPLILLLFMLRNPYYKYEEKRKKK
Sequence of UniProt Q8R146 (whole entry, looked up): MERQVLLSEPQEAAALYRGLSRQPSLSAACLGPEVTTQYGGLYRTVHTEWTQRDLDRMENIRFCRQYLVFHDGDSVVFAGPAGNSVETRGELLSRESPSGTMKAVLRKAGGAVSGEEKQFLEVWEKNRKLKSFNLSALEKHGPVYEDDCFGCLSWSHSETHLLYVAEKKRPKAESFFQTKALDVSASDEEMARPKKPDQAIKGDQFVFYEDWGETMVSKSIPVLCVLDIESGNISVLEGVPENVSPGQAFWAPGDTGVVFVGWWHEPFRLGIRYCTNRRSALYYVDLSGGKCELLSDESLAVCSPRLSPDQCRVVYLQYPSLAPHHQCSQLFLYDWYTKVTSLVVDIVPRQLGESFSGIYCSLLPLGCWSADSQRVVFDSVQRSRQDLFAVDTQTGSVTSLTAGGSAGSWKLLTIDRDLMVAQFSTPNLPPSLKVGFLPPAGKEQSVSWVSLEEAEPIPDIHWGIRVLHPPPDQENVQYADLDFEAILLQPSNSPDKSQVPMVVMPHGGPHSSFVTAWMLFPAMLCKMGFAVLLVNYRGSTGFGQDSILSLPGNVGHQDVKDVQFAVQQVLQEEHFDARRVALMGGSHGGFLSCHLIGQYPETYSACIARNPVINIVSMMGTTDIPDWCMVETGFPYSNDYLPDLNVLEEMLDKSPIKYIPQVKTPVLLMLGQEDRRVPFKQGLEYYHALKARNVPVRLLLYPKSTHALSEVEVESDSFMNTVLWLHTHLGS

SMILES | target | assay | system | conditions | scale | quantity | value
C[C@]12CC[C@@H]3c4ccc(O)c(Cl)c4CC[C@H]3[C@@H]1CCC2=O | AKR1C1 (Homo sapiens, UniProt Q04828) | enzyme activity, inhibitor, absorbance | – | 100 µM, pH 9 | – | inhibition | 80%
CCN(Cc1ccccc1)C(=O)CCc1nc(CN2CCN(C(=O)Cc3ccc(OC)c(OC)c3)CC2)no1 | SCN9A (Homo sapiens, UniProt Q15858) | sodium current, whole-cell patch clamp | HEK293 stably expressing NaV1.7 | 10 µM | relative to: control, towards hyperpolarisation | inactivation curve shift | 5.81 mV
CN(C)CCCSC(=S)N1CCN(C(=O)/C=C/c2coc3ccccc3c2=O)CC1 | Nucleoprotein (N, Tomato spotted wilt virus, UniProt P25999, Y184A) | binding, microscale thermophoresis | – | concentration not given | relative to: wild type over mutant | fold reduction in affinity | ~135
COc1ccc(C)cc1NC(=O)OC1CC2CCCC(C1)N2Cc1ccc(CC[18F])cc1 (stereo not shown) | Tmem97 (Mus musculus, UniProt Q8VD00) | receptor binding, saturation radioligand binding | mouse, EMT6 tumour membrane homogenate | – | – | Bmax | ~3700 fmol/mg protein
CC(C)CC(O)(CC(C)C)c1cn(C(=O)N2CCCC2)nn1 | Acylamino-acid-releasing enzyme (Apeh, Mus musculus, UniProt Q8R146) | inhibitor | – | 3 nM, 30 min preincubation | – | N-acetyl peptide cleavage | inhibited
COc1ccc2cc1Oc1ccc(cc1)C[C@H]1c3cc(c(OC)cc3CC[N@+]1(C)Cc1ccc3ccc4cccc5ccc1c3c45)Oc1c(OC)c(OC)cc3c1[C@H](C2)[N@@+](C)(Cc1ccc2ccc4cccc5ccc1c2c45)CC3 | poly(dA)·poly(dT) 18-bp dsDNA | DNA binding, ethidium bromide displacement | phosphate buffer, 10% DMSO | pH 7.2, 25 °C, dsDNA 10 µM, 10 mM NaCl, with: ethidium bromide 5 µM | – | Stern-Volmer constant | 13400 M⁻¹
CC(C)C[C@H](NC(=O)CNC(=O)[C@@H](NC(=O)[C@H](CO)NC(=O)[C@H](CCCCN)NC(=O)[C@H](CC(C)C)NC(=O)C1(NC(=O)[C@H](CCC(=O)O)NC(=O)[C@H](CC(C)C)NC(=O)[C@@H](N)C(C)C)CC(C)(C)N([O])C(C)(C)C1)C(C)C)C(=O)N[C@@H](Cc1ccccc1)C(=O)O | Rhodopsin, photoactivated (Meta II) (RHO, Bos taurus, UniProt P02699) | EPR | – | – | – | dissociation time constant | 8 min
Cc1sc2c(c1C)C(c1ccc(Cl)cc1)=N[C@@H](CC(=O)NCCCNC(=O)c1ccc(F)c([N+](=O)[O-])c1)c1nnc(C)n1-2 | BRD4 (Homo sapiens, UniProt O60885) | degrader | Jurkat | – | – | Dmax | 87%
CC[C@H](C)[C@H](NC(=O)[C@H](CCC(N)=O)NC(=O)[C@H](CC(C)C)NC(=O)[C@@H](NC(=O)CNC(=O)[C@H](Cc1ccc(O)cc1)NC(=O)[C@H](CC(=O)O)NC(=O)[C@@H](NC(=O)[C@H](CO)NC(=O)CNC(=O)[C@H](CC(=O)O)NC(=O)[C@@H](NC(=O)[C@H](CC(N)=O)NC(=O)[C@H](CCCNC(=N)N)NC(=O)[C@H](CC(N)=O)NC(=O)[C@@H](NC(=O)[C@H](C)NC(=O)[C@H](CCC(N)=O)NC(=O)[C@@H](NC(=O)[C@H](CC(N)=O)NC(=O)[C@H](Cc1ccccc1)NC(=O)[C@H](CC(N)=O)NC(=O)[C@H](CO)NC(=O)[C@H](CCC(=O)O)NC(=O)[C@H](Cc1ccccc1)NC(=O)[C@H](CCCCN)NC(=O)[C@H](C)NC(=O)[C@H](C)NC(=O)[C@H](CO)NC(=O)[C@@H](NC(=O)[C@H](Cc1c[nH]c2ccccc12)NC(=O)[C@H](CC(N)=O)NC(=O)CNC(=O)[C@H](CC(C)C)NC(=O)[C@H](CO)NC(=O)[C@H](Cc1ccc(O)cc1)NC(=O)CNC(=O)[C@H](CCCNC(=N)N)NC(=O)[C@H](Cc1ccc(O)cc1)NC(=O)[C@H](CC(N)=O)NC(=O)[C@@H](N)CC(=O)O)C(C)C)[C@@H](C)O)[C@@H](C)O)[C@@H](C)O)[C@@H](C)O)[C@@H](C)CC)C(=O)O | Periplasmic serine endoprotease DegP (degP, Escherichia coli, UniProt P0C0V0, C83S/C95S/N322C/S236A) | cage assembly, FRET | – | with: DegP S210A 50 nM | – | Hill coefficient | 1.9
CCCC[C@H](NC(=O)[C@H](Cc1ccccc1)NC(=O)[C@H](Cc1c[nH]cn1)NC(=O)CCNC(=O)[C@@H](NC(=O)[C@H](C)NC(=O)[C@H](Cc1c[nH]c2ccccc12)NC(=O)[C@H](CCC(N)=O)NC(=O)[C@H](N)Cc1ccc(O)cc1)C(C)C)C(N)=O | GRPR (Homo sapiens, UniProt P30550) | inositol phosphate generation, agonist | hGRPR/BALB cells | 1 µM | higher = stronger stimulation | inositol phosphate level | 21000 ± 2520 dpm
CCCC[C@H](NC=O)C(=O)N[C@@H](CCCC)C(=O)N[C@@H](Cc1c[nH]c2ccccc12)C(=O)N[C@@H](CCC(=O)O)C(=O)N[C@@H](CC(=O)O)C(=O)N[C@@H](Cc1c[nH]c2ccccc12)C(=O)N[C@H](C(=O)NCC(=O)N[C@@H](Cc1c[nH]c2ccccc12)C(=O)N[C@H](C(=O)O)[C@@H](C)CC)C(C)C | FPR1 (Homo sapiens, UniProt P21462) | receptor downregulation | CHO cells | – | – | Ki/EC50 ratio | > 10 fold
O=P1(O)OC[C@H]2O[C@@H](n3cnc4cncnc43)[C@H](O)[C@@H]2OP(=O)(O)OC[C@H]2O[C@@H](n3cnc4cncnc43)[C@H](O)[C@@H]2O1 | ydaO riboswitch wild type (Bacillus subtilis) | competition gel-shift | – | concentration not given | relative to: c-di-AMP, higher = weaker binding | binding affinity fold loss | 5300
C/C(=N\OCCCN1CCCCC1)c1ccc(C(F)(F)F)cc1 | rat sigma-1 receptor | binding | – | with: phenytoin 250 µM | relative to: without over with phenytoin | Ki ratio | 2.05
CC(=O)N[C@@H](Cc1c[nH]c2ccccc12)C(=O)N[C@@H](CCC(=O)O)C(=O)N[C@@H](Cc1c[nH]cn1)C(=O)N[C@@H](CC(=O)O)C(=O)Nc1ccc2c(C)cc(=O)oc2c1 | Caspase-7 (CASP7, Homo sapiens, UniProt P55210) | substrate cleavage, substrate, fluorogenic AMC release | – | enzyme 0.25 activity units/µL | – | Vmax | 32.3 ± 4.07 RFU/min
CC(=O)N[C@H]1[C@@H](OP(=O)(O)OP(=O)(O)OC/C=C(/C)CC/C=C(/C)CC/C=C(/C)CC/C=C(/C)CC/C=C(/C)CC/C=C(/C)CC/C=C(/C)CC/C=C(/C)CC/C=C(\C)CC/C=C(\C)CCC=C(C)C)O[C@H](CO)[C@@H](O)[C@@H]1O[C@H](C)C(=O)N[C@@H](C)C(=O)N[C@H](CCC(=O)N[C@@H](CCCCNC(=O)OCCCCCCNC(=S)Nc1ccc(NS(=O)(=O)c2cccc3c(N(C)C)cccc23)cc1)C(=O)N[C@H](C)C(=O)N[C@H](C)C(=O)O)C(=O)O | UDP-N-acetylglucosamine--N-acetylmuramyl-(pentapeptide) pyrophosphoryl-undecaprenol N-acetylglucosamine transferase (murG, Mycolicibacterium smegmatis, UniProt A0R016) | substrate | – | with: UDP-GlcNAc 187.5 µM | – | Km | 39 ± 3 µM
CC(=O)N(C)[C@@H](Cc1ccccc1)C(=O)N[C@@H](Cc1ccccc1)C(=O)N[C@@H](Cc1ccc2ccccc2c1)C(=O)N[C@@H](CCCNC(=N)N)C(=O)N[C@@H](CC(C)C)C(=O)N[C@@H](CCCNC(=N)N)C(=O)N[C@@H](CCCNC(=N)N)C(=O)N[C@H](C)C(=O)N[C@@H](CCCNC(=N)N)C(=O)N1CCC[C@H]1C(=O)N[C@@H](CCCCN)C(N)=O | Oprk1 | agonist | CHO cells | 10 µM | relative to: dynorphin A(1-13) amide | adenylyl cyclase activity | 101 ± 11%
C[C@H](NC(=O)CNC(=O)CNC(=O)[C@H](Cc1ccc(O)cc1)NCc1ccccc1)C(=O)N[C@@H]1CC(=O)NC[C@@H](C(=O)N[C@@H](CCCNC(=N)N)C(=O)N2CCC[C@H]2C(=O)N[C@@H](CCCCN)C(N)=O)NC(=O)[C@H](CCCNC(=N)N)NC(=O)[C@H](CCCNC(=N)N)NC1=O | Oprk1 | binding | – | – | relative to: zyklophin | affinity fold decrease | 42 fold
COC(=O)C1C(OC(c2ccc(Cl)cc2)c2ccc(Cl)cc2)CC2CCC1N2C (single isomer, unassigned) | ADRB2 (Homo sapiens, UniProt P07550) | binding, radioligand displacement | – | inactive if below 75% at 10000 nM, with: [3H]CGP-12177 | – | Ki | inactive
CC(=O)N[C@H]1[C@@H](OC[C@H](NC(=O)CNC(=O)[C@@H]2CCCN2C(=O)[C@H](C)NC(=O)[C@@H]2CCCN2C(=O)[C@@H](N)CCCNC(=N)N)C(=O)N[C@H](C(=O)N[C@@H](C)C(=O)N2CCC[C@H]2C(=O)N2CCC[C@H]2C(=O)N[C@@H](C)C(=O)N[C@@H](Cc2c[nH]cn2)C(=O)NCC(=O)O)[C@@H](C)O[C@H]2O[C@H](CO)[C@H](O)[C@H](O)[C@H]2NC(C)=O)O[C@H](CO)[C@H](O)[C@@H]1O | anti-MUC1 Fab 14 A wild type, murine | SPR | – | – | relative to: Glyco-T | ka increase | 1.8 fold
CC(C)CC(NC(=O)C(NC(=O)NC(C(=O)O)C(C)C)C1CCNC(=N)N1)C(=O)NCCCNC(C(=O)O)C(OC1OC(CN)C(O)C1O)C1OC(n2ccc(=O)[nH]c2=O)C(O)C1O (stereo not shown) | mraY (Aquifex aeolicus, UniProt O66465) | isothermal titration calorimetry | – | concentration not given, wild type, with: Mg2+ | – | binding entropy | -11.5 ± 9.8 cal/mol/K
CC(C)[C@@H]1NC(=O)[C@H](CCC(N)=O)NC(=O)[C@@H](Cc2ccc(O)cc2)NC(=O)CSC[C@@H](C(N)=O)NC(=O)[C@H](CC(=O)O)NC(=O)[C@H](CCC(=O)O)NC(=O)[C@H](Cc2c[nH]c3ccccc23)NC(=O)[C@@H]2CCCN2C(=O)[C@H](CO)N(C)C(=O)[C@H](C)NC(=O)[C@H](Cc2c[nH]c3ccccc23)NC(=O)[C@H](Cc2c[nH]c3ccccc23)NC(=O)[C@H](C(C)C)NC(=O)[C@H]([C@@H](C)O)NC1=O | 2,3-bisphosphoglycerate-independent phosphoglycerate mutase (gpmI, Staphylococcus aureus, UniProt Q6GIL5) | thermal stability, thermal shift | – | – | – | Tm | 62.4 °C
O=C(O)/C=C/c1ccc(O)cc1 | alpha-amylase | enzyme activity, DNS | – | 1000 µg/mL | – | inhibition | 86.8 ± 1.8%

Excerpt of the above:
SMILES | target | assay | system | conditions | scale | quantity | value
Cc1sc2c(c1C)C(c1ccc(Cl)cc1)=N[C@@H](CC(=O)NCCCNC(=O)c1ccc(F)c([N+](=O)[O-])c1)c1nnc(C)n1-2 | BRD4 (Homo sapiens, UniProt O60885) | degrader | Jurkat | – | – | Dmax | 87%
CC[C@H](C)[C@H](NC(=O)[C@H](CCC(N)=O)NC(=O)[C@H](CC(C)C)NC(=O)[C@@H](NC(=O)CNC(=O)[C@H](Cc1ccc(O)cc1)NC(=O)[C@H](CC(=O)O)NC(=O)[C@@H](NC(=O)[C@H](CO)NC(=O)CNC(=O)[C@H](CC(=O)O)NC(=O)[C@@H](NC(=O)[C@H](CC(N)=O)NC(=O)[C@H](CCCNC(=N)N)NC(=O)[C@H](CC(N)=O)NC(=O)[C@@H](NC(=O)[C@H](C)NC(=O)[C@H](CCC(N)=O)NC(=O)[C@@H](NC(=O)[C@H](CC(N)=O)NC(=O)[C@H](Cc1ccccc1)NC(=O)[C@H](CC(N)=O)NC(=O)[C@H](CO)NC(=O)[C@H](CCC(=O)O)NC(=O)[C@H](Cc1ccccc1)NC(=O)[C@H](CCCCN)NC(=O)[C@H](C)NC(=O)[C@H](C)NC(=O)[C@H](CO)NC(=O)[C@@H](NC(=O)[C@H](Cc1c[nH]c2ccccc12)NC(=O)[C@H](CC(N)=O)NC(=O)CNC(=O)[C@H](CC(C)C)NC(=O)[C@H](CO)NC(=O)[C@H](Cc1ccc(O)cc1)NC(=O)CNC(=O)[C@H](CCCNC(=N)N)NC(=O)[C@H](Cc1ccc(O)cc1)NC(=O)[C@H](CC(N)=O)NC(=O)[C@@H](N)CC(=O)O)C(C)C)[C@@H](C)O)[C@@H](C)O)[C@@H](C)O)[C@@H](C)O)[C@@H](C)CC)C(=O)O | Periplasmic serine endoprotease DegP (degP, Escherichia coli, UniProt P0C0V0, C83S/C95S/N322C/S236A) | cage assembly, FRET | – | with: DegP S210A 50 nM | – | Hill coefficient | 1.9
CCCC[C@H](NC(=O)[C@H](Cc1ccccc1)NC(=O)[C@H](Cc1c[nH]cn1)NC(=O)CCNC(=O)[C@@H](NC(=O)[C@H](C)NC(=O)[C@H](Cc1c[nH]c2ccccc12)NC(=O)[C@H](CCC(N)=O)NC(=O)[C@H](N)Cc1ccc(O)cc1)C(C)C)C(N)=O | GRPR (Homo sapiens, UniProt P30550) | inositol phosphate generation, agonist | hGRPR/BALB cells | 1 µM | higher = stronger stimulation | inositol phosphate level | 21000 ± 2520 dpm
